Results collected from several papers.
Lines come from different studies, so protocols differ. ± marks the error that the study gave.
Sequence of UniProt Q13526 (whole entry, looked up): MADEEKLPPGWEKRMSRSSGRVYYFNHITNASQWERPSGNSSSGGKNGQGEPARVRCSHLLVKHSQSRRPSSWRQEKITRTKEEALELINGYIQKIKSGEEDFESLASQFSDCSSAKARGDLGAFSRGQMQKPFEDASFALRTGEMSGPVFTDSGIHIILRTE
Sequence of UniProt O00187 (whole entry, looked up): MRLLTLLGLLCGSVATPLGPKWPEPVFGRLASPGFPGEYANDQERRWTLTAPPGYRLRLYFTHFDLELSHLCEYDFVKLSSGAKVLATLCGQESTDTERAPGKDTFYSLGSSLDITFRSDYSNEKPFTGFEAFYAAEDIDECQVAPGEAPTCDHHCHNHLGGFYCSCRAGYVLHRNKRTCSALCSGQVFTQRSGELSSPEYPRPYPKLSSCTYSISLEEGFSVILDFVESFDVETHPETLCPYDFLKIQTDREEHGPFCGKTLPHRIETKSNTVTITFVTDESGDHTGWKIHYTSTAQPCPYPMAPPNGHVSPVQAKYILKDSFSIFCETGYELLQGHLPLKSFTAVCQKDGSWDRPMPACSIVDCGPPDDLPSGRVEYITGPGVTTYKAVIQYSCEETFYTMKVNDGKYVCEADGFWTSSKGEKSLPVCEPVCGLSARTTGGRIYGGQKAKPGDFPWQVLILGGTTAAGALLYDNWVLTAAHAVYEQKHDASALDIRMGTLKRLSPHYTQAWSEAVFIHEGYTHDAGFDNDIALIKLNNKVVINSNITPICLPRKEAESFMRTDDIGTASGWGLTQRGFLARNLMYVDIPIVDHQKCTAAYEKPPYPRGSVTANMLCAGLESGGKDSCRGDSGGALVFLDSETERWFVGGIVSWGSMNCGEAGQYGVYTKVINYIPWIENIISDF
Sequence of UniProt P78536 (whole entry, looked up): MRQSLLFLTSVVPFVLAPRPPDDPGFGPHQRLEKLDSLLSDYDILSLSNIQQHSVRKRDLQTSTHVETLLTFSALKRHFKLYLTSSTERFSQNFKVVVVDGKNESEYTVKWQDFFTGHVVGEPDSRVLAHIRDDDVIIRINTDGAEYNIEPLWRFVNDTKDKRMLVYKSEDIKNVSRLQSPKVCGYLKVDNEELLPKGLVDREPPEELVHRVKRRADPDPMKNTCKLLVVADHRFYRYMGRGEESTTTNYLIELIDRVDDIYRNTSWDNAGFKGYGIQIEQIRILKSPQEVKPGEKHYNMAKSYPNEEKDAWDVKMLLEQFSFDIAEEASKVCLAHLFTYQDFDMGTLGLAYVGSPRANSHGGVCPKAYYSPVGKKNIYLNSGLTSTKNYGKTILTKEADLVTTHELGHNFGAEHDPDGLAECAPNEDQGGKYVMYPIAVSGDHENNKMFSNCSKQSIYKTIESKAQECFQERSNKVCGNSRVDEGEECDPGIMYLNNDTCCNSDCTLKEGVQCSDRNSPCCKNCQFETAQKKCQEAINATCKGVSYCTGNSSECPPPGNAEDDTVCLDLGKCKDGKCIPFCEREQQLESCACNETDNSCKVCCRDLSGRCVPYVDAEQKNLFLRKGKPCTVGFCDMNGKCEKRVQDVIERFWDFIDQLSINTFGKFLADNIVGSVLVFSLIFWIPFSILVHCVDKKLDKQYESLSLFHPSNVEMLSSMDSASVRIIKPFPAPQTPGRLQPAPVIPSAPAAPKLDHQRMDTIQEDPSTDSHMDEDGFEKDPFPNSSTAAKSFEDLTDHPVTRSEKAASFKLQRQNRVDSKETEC
Sequence of UniProt Q99685 (whole entry, looked up): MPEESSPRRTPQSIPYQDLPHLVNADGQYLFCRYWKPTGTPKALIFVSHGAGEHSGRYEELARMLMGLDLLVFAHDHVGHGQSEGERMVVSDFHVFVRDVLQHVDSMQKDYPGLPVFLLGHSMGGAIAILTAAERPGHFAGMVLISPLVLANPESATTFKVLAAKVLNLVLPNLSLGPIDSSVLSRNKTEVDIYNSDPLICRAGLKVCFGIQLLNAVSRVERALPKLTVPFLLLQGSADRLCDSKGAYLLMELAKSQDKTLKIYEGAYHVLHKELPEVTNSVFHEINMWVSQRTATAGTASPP
Sequence of UniProt Q6PHR2 (whole entry, looked up): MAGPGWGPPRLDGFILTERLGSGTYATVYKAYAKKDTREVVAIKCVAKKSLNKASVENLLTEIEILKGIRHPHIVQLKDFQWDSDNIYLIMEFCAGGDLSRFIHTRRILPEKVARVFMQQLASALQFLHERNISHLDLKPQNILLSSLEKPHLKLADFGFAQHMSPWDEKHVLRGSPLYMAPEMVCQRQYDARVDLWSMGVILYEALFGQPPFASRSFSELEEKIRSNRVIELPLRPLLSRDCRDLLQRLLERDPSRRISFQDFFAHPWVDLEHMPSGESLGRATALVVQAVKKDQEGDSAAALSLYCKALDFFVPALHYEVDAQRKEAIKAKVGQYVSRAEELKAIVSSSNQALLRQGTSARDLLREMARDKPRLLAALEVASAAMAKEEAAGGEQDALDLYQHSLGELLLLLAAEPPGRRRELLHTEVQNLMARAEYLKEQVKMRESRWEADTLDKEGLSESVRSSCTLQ
Sequence of UniProt Q4U2R8 (whole entry, looked up): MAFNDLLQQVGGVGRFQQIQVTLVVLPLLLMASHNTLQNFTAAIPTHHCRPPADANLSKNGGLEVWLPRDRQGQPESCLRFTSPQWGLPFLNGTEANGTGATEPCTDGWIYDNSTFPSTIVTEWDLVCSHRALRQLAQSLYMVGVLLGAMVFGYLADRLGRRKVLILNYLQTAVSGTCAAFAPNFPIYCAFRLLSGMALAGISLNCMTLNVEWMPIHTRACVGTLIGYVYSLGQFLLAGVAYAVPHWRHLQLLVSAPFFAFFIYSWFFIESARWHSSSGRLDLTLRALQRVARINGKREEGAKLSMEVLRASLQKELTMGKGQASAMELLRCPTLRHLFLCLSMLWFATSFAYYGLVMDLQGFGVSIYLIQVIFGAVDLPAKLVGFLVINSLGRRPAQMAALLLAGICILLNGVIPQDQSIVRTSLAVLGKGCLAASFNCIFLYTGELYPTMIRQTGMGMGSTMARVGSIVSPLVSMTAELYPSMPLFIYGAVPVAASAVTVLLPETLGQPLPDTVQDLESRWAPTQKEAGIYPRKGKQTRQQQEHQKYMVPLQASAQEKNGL
Sequence of UniProt P07363 (whole entry, looked up): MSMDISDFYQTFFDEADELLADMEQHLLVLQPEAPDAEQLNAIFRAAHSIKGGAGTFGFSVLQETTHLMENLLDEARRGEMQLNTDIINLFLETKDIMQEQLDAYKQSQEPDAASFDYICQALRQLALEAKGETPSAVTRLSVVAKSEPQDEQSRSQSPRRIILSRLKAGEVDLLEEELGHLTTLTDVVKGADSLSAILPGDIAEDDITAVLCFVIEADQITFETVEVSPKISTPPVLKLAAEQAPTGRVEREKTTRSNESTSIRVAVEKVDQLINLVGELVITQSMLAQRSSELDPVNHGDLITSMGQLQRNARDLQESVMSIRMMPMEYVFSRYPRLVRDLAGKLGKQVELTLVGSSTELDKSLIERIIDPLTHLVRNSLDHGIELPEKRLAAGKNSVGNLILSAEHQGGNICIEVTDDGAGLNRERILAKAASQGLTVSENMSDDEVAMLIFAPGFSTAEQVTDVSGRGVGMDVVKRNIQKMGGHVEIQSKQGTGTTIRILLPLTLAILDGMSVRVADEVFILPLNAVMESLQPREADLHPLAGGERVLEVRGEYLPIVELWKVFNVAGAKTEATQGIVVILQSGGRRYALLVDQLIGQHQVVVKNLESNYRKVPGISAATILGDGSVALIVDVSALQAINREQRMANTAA
Sequence of UniProt P54761 (whole entry, looked up): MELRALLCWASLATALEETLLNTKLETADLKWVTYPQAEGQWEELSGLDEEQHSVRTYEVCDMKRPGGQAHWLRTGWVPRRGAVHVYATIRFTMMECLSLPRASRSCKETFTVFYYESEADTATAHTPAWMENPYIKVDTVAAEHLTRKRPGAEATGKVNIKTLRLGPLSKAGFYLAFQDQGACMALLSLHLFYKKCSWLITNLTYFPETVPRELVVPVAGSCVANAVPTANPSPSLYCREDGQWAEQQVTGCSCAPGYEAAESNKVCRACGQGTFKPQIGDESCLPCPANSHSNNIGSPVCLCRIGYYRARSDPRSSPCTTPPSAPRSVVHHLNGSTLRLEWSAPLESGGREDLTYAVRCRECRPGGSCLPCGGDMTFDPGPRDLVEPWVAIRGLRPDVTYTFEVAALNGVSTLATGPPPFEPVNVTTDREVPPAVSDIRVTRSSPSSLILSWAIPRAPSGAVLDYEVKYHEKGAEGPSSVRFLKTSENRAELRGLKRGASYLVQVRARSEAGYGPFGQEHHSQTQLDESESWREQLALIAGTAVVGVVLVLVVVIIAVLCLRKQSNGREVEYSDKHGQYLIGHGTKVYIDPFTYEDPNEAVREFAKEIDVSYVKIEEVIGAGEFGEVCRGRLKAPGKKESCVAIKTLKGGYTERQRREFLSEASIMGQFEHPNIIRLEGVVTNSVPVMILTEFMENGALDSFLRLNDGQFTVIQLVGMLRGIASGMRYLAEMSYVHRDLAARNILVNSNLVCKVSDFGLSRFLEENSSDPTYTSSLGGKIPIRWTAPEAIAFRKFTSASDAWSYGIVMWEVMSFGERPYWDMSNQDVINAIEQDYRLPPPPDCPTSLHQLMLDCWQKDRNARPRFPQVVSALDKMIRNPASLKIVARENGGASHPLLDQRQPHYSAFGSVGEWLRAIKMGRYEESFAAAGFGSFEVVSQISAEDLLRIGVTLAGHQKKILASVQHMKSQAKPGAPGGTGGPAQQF
Sequence of UniProt P24158 (whole entry, looked up): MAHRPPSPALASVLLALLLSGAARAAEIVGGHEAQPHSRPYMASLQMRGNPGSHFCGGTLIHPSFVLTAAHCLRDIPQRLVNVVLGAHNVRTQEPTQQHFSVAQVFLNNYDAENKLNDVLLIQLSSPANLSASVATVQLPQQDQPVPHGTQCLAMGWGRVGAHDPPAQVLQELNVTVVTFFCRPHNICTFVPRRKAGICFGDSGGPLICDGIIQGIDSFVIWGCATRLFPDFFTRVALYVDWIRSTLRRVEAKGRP
Sequence of UniProt P00383 (whole entry, looked up): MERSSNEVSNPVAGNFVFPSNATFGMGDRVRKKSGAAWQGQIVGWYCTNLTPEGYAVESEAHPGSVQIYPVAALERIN

`Cc1ccc(-c2nn(-c3ccc(S(C)(=O)=O)cc3)cc2/C=N/N=C2/NC(=O)CS2)cc1` has an IC50 of 43 nM (EGFR (Homo sapiens, UniProt P00533); enzyme activity, inhibitor).
`CC(=O)N(c1ccccc1)c1nc(COC(=O)[C@H]2CC(=O)N(c3cccc4ccccc34)C2)cs1` gave an IC50 of 790 nM (KCNA2/KCNA1 (Homo sapiens, UniProt P16389+Q09470); potassium current, inhibitor, automated patch clamp; CHO-K1, concatemer expressing).
`C[C@H](OP(=O)(O)O)[C@H]1NC(=O)[C@@H](CCCNC(=N)N)NC(=O)[C@@H](CCCNC(=N)N)NC(=O)[C@H](CCCNC(=N)N)NC(=O)[C@H](Cc2ccc3ccccc3c2)NC(=O)[C@H](Cc2ccc3ccccc3c2)NC(=O)[C@@H]2CCCCN2C1=O` has an IC50 of 3400 ± 810 nM (PIN1 (Homo sapiens, UniProt Q13526); fluorescence anisotropy competition; together with: FITC-labelled probe).
With `Cc1cnc(Nc2ccc(C3CCN(C)CC3)c(F)c2)nc1Nc1ccc(Cl)c(NS(=O)(=O)C(C)(C)C)c1` the IC50 was 227 nM (ULK3 (Homo sapiens, UniProt Q6PHR2); enzyme activity, inhibitor).
For `CC[C@H](C)[C@H](NC(=O)[C@@H]1CSSC[C@H](NC(=O)[C@H](Cc2ccc(O)cc2)NC(=O)CN)C(=O)N[C@@H](CO)C(=O)N[C@@H](CCCNC(=N)N)C(=O)N[C@@H](CO)C(=O)N[C@@H](Cc2ccc(O)cc2)C(=O)N2CCC[C@H]2C(=O)N2CCC[C@H]2C(=O)N[C@@H](C(C)C)C(=O)N1)C(=O)N1CCC[C@H]1C(=O)N[C@@H](CC(=O)O)C(=O)O`, the IC50 was 819 nM (Mannan-binding lectin serine protease 2 (Homo sapiens, UniProt O00187); C3 deposition, inhibitor, ELISA; 100-fold diluted human serum; 30 min preincubation).
`O=C(O)c1ccc2nc(-c3ccc(OCCCCCCCCOc4ccc(-c5nc6ccc(C(=O)O)cc6[nH]5)cc4)cc3)[nH]c2c1` has an IC50 of 70000 ± 30000 nM (Dihydrofolate reductase type 2 (Escherichia coli, UniProt P00383); enzyme activity, inhibitor; pH 7).
`C[C@H](NC(=O)[C@@H](N)Cc1c[nH]c2ccccc12)C(=O)N[C@@H](CCCNC(=N)N)C(N)=O` has an IC50 of greater than 100000 nM (Ephrin type-B receptor 4 (Mus musculus, UniProt P54761); ephrin-B2 binding, inhibitor; 1 h, together with: ephrin-B2 AP 0.02 nM).
For `COC(=O)N1CCC(CN2CCC(CNC(=O)c3cccc4[nH]c(C(C)C)nc34)CC2)CC1`, the IC50 was greater than 10000 nM (SLC22A6 (Homo sapiens, UniProt Q4U2R8); transporter uptake, inhibitor).
`COc1ccc(-c2cc(C(F)(F)F)n3nc(N)nc3n2)cc1OC` has an IC50 of greater than 100000 nM (Chemotaxis protein CheA (Escherichia coli, UniProt P07363); kinase activity, ATP-competitive; together with: CheW).
For `O=C(OC(C(F)(F)F)C(F)(F)F)N1CCC(CCn2nc3ccccc3n2)CC1`, the IC50 was 180 nM (MGLL (Homo sapiens, UniProt Q99685); enzyme activity, inhibitor).
With `CC(C)C[C@@H](CN[C@@H](Cc1ccc(Cl)cc1)C(N)=O)NC(=O)[C@H](Cc1c[nH]cn1)NC(=O)CNC(=O)[C@@H](NC(=O)[C@H](C)NC(=O)[C@H](Cc1c[nH]c2ccccc12)NC(=O)[C@H](CCC(N)=O)NC(=O)[C@H](N)Cc1ccccc1)C(C)C` the IC50 was 10.3 ± 1.2 nM (GRPR (Homo sapiens, UniProt P30550); inositol phosphate generation, antagonist; Balb 3T3 expressing GRPR; together with: GRP 1 nM).
`Cc1cc(NC(=O)[C@H](O)c2cc(F)cc(F)c2)ccc1-c1cnc(N)c(C(=O)NC(C)C)c1` has an IC50 of 2960 nM (EIF2AK1 (Homo sapiens, UniProt Q9BQI3); enzyme activity, inhibitor, FRET).
With `O=C(Nc1ccc(C(=O)Nc2ccc(C(=O)Nc3ccc(S(=O)(=O)O)c4cc(S(=O)(=O)O)cc(S(=O)(=O)O)c34)cc2)cc1)Nc1ccc(C(=O)Nc2ccc(C(=O)Nc3ccc(S(=O)(=O)O)c4cc(S(=O)(=O)O)cc(S(=O)(=O)O)c34)cc2)cc1` the IC50 was 34200 nM (Myeloblastin (Homo sapiens, UniProt P24158); enzyme activity, inhibitor, absorbance; pH 7.4).
`CC(C)=CCN=C(N)NCCC[C@@H](NC(=O)CCCc1ccc(O)cc1)C(=O)N[C@@H](Cc1ccccc1)C(O)CC(=O)N[C@@H](Cc1ccc(O)cc1)C(=O)O` (stereo in doubt) gave an IC50 of greater than 100000 nM (ADAM17 (Homo sapiens, UniProt P78536); enzyme activity, inhibitor).
